Published values gathered from unrelated publications.
Compare with care: the assays were run in different laboratories. “And” joins repeats or separate records; there may be more than shown. Numbers after ± are the reported error.
HTR1D: 5-hydroxytryptamine receptor 1D (HTR1D, Homo sapiens, UniProt P28221)
BRD7: Bromodomain-containing protein 7 (BRD7, Homo sapiens, UniProt Q9NPI1)
LRRC8A: LRRC8A (Homo sapiens, UniProt Q8IWT6)
Cgas: Cyclic GMP-AMP synthase (Cgas, Mus musculus, UniProt Q8C6L5)
SCN9A: Sodium channel protein type 9 subunit alpha (SCN9A, Homo sapiens, UniProt Q15858)

Structure (SMILES) | target | test | test system | conditions | how to read | inhibition
CC1=NN(c2cccc([N+](=O)[O-])c2)C(=O)C1=NNc1ccc(S(N)(=O)=O)cc1 | bovine α-glucosidase | enzyme activity, inhibitor, glucose oxidase | – | 50 µg/mL, together with: maltose | – | 45.2%
CC(C)(Nc1nc(-c2ccccn2)nc2ccccc12)c1ccccn1 | panel of 300 kinases | TR-FRET binding | – | 1 µM, across all kinases | – | < 50%
COc1cccc(OC[C@@H]2CN(CC(=O)N3CCc4ccccc43)CCO2)c1 | HTR1D | radioligand binding | – | concentration not given, together with: [3H]5-CT | – | 17.2%
CC[C@@H]1[C@H](F)C(=O)N[C@@H]1COc1nccc2cc(C(N)=O)c(OC)cc12 | Casein kinase I isoform alpha (CSNK1A1, Homo sapiens, UniProt P48729) | ATP probe binding, KiNativ profiling, item: Lys2 probe site | THP-1 cell lysate | 0.2 mM | – | -3.6%
COc1cc(C2=CCCCc3c2ccc(OC)c3OC(C)c2ccc([N+](=O)[O-])s2)cc(OC)c1OC (stereo not drawn) | tubulin | colchicine binding | – | 5 µM, together with: 5.0 µM [3H]colchicine | – | 4.7 ± 2%
O=C(C[C@@H](C(F)F)n1ccc(F)n1)N1CCC(O)(Cn2cnc3c(cnn3-c3ccc(F)cc3)c2=O)CC1 | Ubiquitin carboxyl-terminal hydrolase 7 (USP7, Homo sapiens, UniProt Q93009, V517F) | enzyme activity, inhibitor | – | 0.05 µM | – | 8.68% and 13.3%
CC(C)C[C@H](NC(=O)[C@@H](NC(=O)[C@@H](N)Cc1ccccc1)C(C)C)C(=O)N[C@@H](CC(=O)O)C(=O)O | Amine oxidase [flavin-containing] B (MAOB, Homo sapiens, UniProt P27338) | inhibitor, fluorometric | – | 410 µM | – | 21%
C[C@H]1[C@H](OC(=O)CCC(=O)O)O[C@@H]2O[C@@]3(C)CC[C@H]4[C@H](C)CC[C@@H]1[C@@]24OO3 | Non-structural polyprotein pORF1, helicase domain (Hepatitis E virus genotype 1, UniProt P33424) | ATPase activity, inhibitor, colorimetric | – | 39 µM, together with: ATP 100 µM | – | 21.4%
Clc1cccc(OC[C@H]2CN(CCN3CCc4ccccc43)CCO2)c1 | HTR1D | radioligand binding | – | concentration not given, together with: [3H]5-CT | – | 33.2%
Cc1cc2c(cc1N1C(=O)c3cccc4c(CCCO)ccc(c34)C1=O)n(C)c(=O)n2C (racemic) | BRD7 | binding, BROMOscan binding | – | 1000 nM | – | 18%
Cc1c(-c2ccccc2)oc2c(C(=O)OCCN3CCCCC3)cccc2c1=O | LRRC8A | endogenous hypotonicity-induced current | HEK293 | 30 µM | – | 78.3 ± 2%
CC1=NN(c2cccc(C)c2)C(=O)C1=NNc1ccc(S(N)(=O)=O)cc1 | bovine α-glucosidase | enzyme activity, inhibitor, glucose oxidase | – | 10 µg/mL, together with: maltose | – | 28.682 ± 0.000696%
O=C(Nc1cccc2c(=O)cc(-c3nnn[nH]3)oc12)c1ccc(OCCCCc2ccccc2)cc1 | LRRC8A/LRRC8C (Homo sapiens, UniProt Q8IWT6+Q8TDW0, Y124F/Y126F) | ion current, whole-cell patch clamp | HCT LRRC8-/- cells | 10 µM, -100 mV, Y124F/Y126F heteromers | – | 70.5% and 13.9% and 6.41% and 1.54% and -5.84% and 19.5%
Cc1nn(-c2nc3c(F)cc(F)cc3s2)c(O)c1C(c1ccc(C(F)(F)F)cc1)c1c(C)nn(-c2nc3c(F)cc(F)cc3s2)c1O | Cgas | enzyme activity, inhibitor, pyrophosphatase-coupled | – | 25 µM, 1.5 h, mouse enzyme | – | 95.9%
COc1cc(-c2cc(C(C)=O)n3ccccc23)c(OC)cc1Cn1ccnc1 | BRD7 | – | – | 1 µM | – | 92.3%
Cc1nc(Nc2ncc(C(=O)Nc3c(C)cccc3Cl)s2)cc(N2CCN(CCO)CC2)n1 | Receptor tyrosine-protein kinase erbB-2 (ERBB2, Homo sapiens, UniProt P04626) | kinase activity, inhibitor, Kinase-Glo MAX | – | 100 µM | – | 95.5%
O=C(CN1CCO[C@@H](COc2ccccn2)C1)N1CCc2ccccc21 | HTR1D | radioligand binding | – | concentration not given, together with: [3H]5-CT | – | 1.2%
COc1cc(C2=CCCc3c2ccc(OC)c3OC(C)c2cnc([N+](=O)[O-])n2C)cc(OC)c1OC (stereo not drawn) | tubulin | colchicine binding | – | 5 µM, together with: 5.0 µM [3H]colchicine | – | 4.8 ± 2%
CC1=NN(c2ccccc2)C(=O)C1=NNc1ccc(S(N)(=O)=O)cc1 | bovine α-glucosidase | enzyme activity, inhibitor, glucose oxidase | – | 10 µg/mL, together with: maltose | – | 35.142 ± 0.00179%
O=C1c2ccccc2CCN1CCCCN1CCN(c2cccc(Cl)c2Cl)CC1 | HTR1D | radioligand binding | – | concentration not given, together with: [3H]5-CT | – | 96.9%
Cc1nn(-c2nc3c(F)cc(F)cc3s2)c(O)c1C(c1cccc(C(F)(F)F)c1)c1c(C)nn(-c2nc3c(F)cc(F)cc3s2)c1O | Cyclic GMP-AMP synthase (CGAS, Homo sapiens, UniProt Q8N884) | enzyme activity, inhibitor, pyrophosphatase-coupled | – | 100 µM, 1.5 h, together with: HT-DNA | – | 79.7%
CC1=NNC(=O)C1=NNc1ccc(S(N)(=O)=O)cc1 | bovine α-glucosidase | enzyme activity, inhibitor, glucose oxidase | – | 10 µg/mL, together with: maltose | – | 24.548 ± 0.00117%
COc1cc(C(=O)NS(=O)(=O)c2ccccc2C)ccc1Cc1cn(C)c2ccc(NC(=O)OC3CCCC3)cc12 | Volume-regulated anion channel subunit LRRC8C, part LRRC8A IL1 chimera (LRRC8C, Homo sapiens, UniProt Q8TDW0, L136K) | ion current, inhibitor, whole-cell patch clamp | HCT LRRC8-/- cells | 0.3 µM, +100 mV | – | 77.4% and 53.1% and 70.1% and 62.9% and 73.1%

Structure (SMILES) | target | test | test system | conditions | how to read | inhibition
Cc1ccnc(OC[C@H]2CN(CC(=O)N3CCc4ccccc43)CCO2)c1 | HTR1D | radioligand binding | – | concentration not given, together with: [3H]5-CT | – | -0.3%
NC/C(=C\F)COc1cccc(Cn2c(=S)[nH]c(=O)c3[nH]cnc32)c1 | Amine oxidase [copper-containing] 3 (Rattus norvegicus, UniProt O08590) | – | rat adipose tissue | 0.1111 µM | – | 94.8%
CN(C(=O)n1cnc(-c2ccc[n+]([O-])c2)c1)C1CCCCC1 | HTR1D | receptor binding | – | 10 µM, subtype 5HT1D | – | 14.9%
Clc1cncc(OC[C@@H]2CN(CCN3CCc4ccccc43)CCO2)c1 | HTR1D | radioligand binding | – | concentration not given, together with: [3H]5-CT | – | 45.3%
Cc1ccc(C(=O)Nc2ccc3ccccc3c2)o1 | SCN9A | ion current, inhibitor, whole-cell patch clamp | – | 10 µM | – | 0.8% and 6.47% and 2.1% and 3.2% and 8.32%
COc1cccc(OC[C@H]2CN(CCN3CCc4ccccc43)CCO2)c1 | HTR1D | radioligand binding | – | concentration not given, together with: [3H]5-CT | – | 25.9%
Cc1nc(Nc2ncc(C(=O)Nc3c(C)cccc3Cl)s2)cc(N2CC[C@H](O)C2)n1 | Proto-oncogene tyrosine-protein kinase Src (SRC, Homo sapiens, UniProt P12931) | – | – | 0.001 µM | – | 97%
O=C(NO)c1ccc(CN2CCCCc3ccccc32)c(F)c1 | Sodium-dependent dopamine transporter (SLC6A3, Homo sapiens, UniProt Q01959) | radioligand binding, PDSP radioligand binding | – | 10 µM | – | -57.2%
CC1=NN(c2ccccn2)C(=O)C1=NNc1ccc(S(N)(=O)=O)cc1 | bovine α-glucosidase | enzyme activity, inhibitor, glucose oxidase | – | 500 µg/mL, together with: maltose | – | 61%
Cc1nn(-c2nc3ccc(Cl)c(Cl)c3[nH]2)c(O)c1C1OC(=O)c2ccccc21 (stereo not drawn) | Cgas | enzyme activity, inhibitor, pyrophosphatase-coupled | – | 1 µM, 1.5 h, mouse enzyme | – | 97.6%
O=c1c(O)cc([C@H]2Oc3cc(O)cc(O)c3C[C@H]2O)cc2c([C@H]3Oc4cc(O)cc(O)c4C[C@H]3O)cc(O)c(O)c12 | alpha-amylase | enzyme activity, inhibitor, DNS method | – | 10 µg/mL, together with: soluble starch | – | 7.02%
[2H]c1cc(C)c(NC(=O)c2cnc(Nc3cc(N4CCCCC4)nc(C)n3)s2)c(Cl)c1 | Tyrosine-protein kinase Fgr (FGR, Homo sapiens, UniProt P09769) | – | – | 0.0001 µM | – | > 50%
c1cncc(OC[C@H]2CN(CCN3CCc4ccccc43)CCO2)c1 | HTR1D | radioligand binding | – | concentration not given, together with: [3H]5-CT | – | 46.9%
CC1=NN(c2ccc(Cl)cc2)C(=O)C1=NNc1ccc(S(N)(=O)=O)cc1 | bovine α-glucosidase | enzyme activity, inhibitor, glucose oxidase | – | 10 µg/mL, together with: maltose | – | 25.065 ± 0.000444%
CN1CCN(c2cc(-c3ccncc3)c(-c3ccc4ccccc4c3)nn2)CC1 | Prostacyclin receptor (PTGIR, Homo sapiens, UniProt P43119) | antagonist, FLIPR | – | 10 µM | – | -4.3%
COc1cc(Cl)c(C(=O)N[C@@H](CN[C@H]2CC[C@@H](N)CC2)Cc2ccc(C#N)cc2)cc1-c1ccc(CN[C@H](C)c2ccc(C)cc2)o1 | Prostaglandin E2 receptor EP3 subtype (PTGER3, Homo sapiens, UniProt P43115) | agonist response, antagonist | – | 10 µM | relative to: agonist control | -2%
CC1=NOC(=O)C1=NNc1ccc(S(N)(=O)=O)cc1 | bovine α-glucosidase | enzyme activity, inhibitor, glucose oxidase | – | 100 µg/mL, together with: maltose | – | 37.5%
Cc1c(-c2ccccc2)oc2ccccc2c1=O | LRRC8A | endogenous hypotonicity-induced current | HEK293 | 30 µM | – | 35.2 ± 3.6%
COc1cc2c3c(c1OC)-c1cc4c(cc1CC3N(C)CC2c1ccccc1)OCO4 (stereo not drawn) | sigma-1 | binding, radioligand binding | – | concentration not given | – | < 50%
CC(=O)c1ccc(-c2cccc(NC(=O)CCc3cccc4c3B(O)OC4)c2)cc1 | Cleavage and polyadenylation specificity factor subunit 3 (Cpsf3, Mus musculus, UniProt Q9QXK7) | pre-mRNA cleavage | mouse nuclear extract | 25 µM | relative to: DMSO | 31%
CC1=NCCNC(=O)C1=NNc1ccc(S(N)(=O)=O)cc1 | bovine α-glucosidase | enzyme activity, inhibitor, glucose oxidase | – | 10 µg/mL, together with: maltose | – | 40.052 ± 0.000699%
CC(C)c1noc2ncc(C(=O)c3ccccc3O)cc12 | SCN9A | ion current, whole-cell patch-clamp | – | 10 µM, hNaV1.7 | – | 11.3%

Excerpt of the above:
Structure (SMILES) | target | test | test system | conditions | how to read | inhibition
O=C(CN1CCO[C@@H](COc2ccccn2)C1)N1CCc2ccccc21 | HTR1D | radioligand binding | – | concentration not given, together with: [3H]5-CT | – | 1.2%
COc1cc(C2=CCCc3c2ccc(OC)c3OC(C)c2cnc([N+](=O)[O-])n2C)cc(OC)c1OC (stereo not drawn) | tubulin | colchicine binding | – | 5 µM, together with: 5.0 µM [3H]colchicine | – | 4.8 ± 2%
CC1=NN(c2ccccc2)C(=O)C1=NNc1ccc(S(N)(=O)=O)cc1 | bovine α-glucosidase | enzyme activity, inhibitor, glucose oxidase | – | 10 µg/mL, together with: maltose | – | 35.142 ± 0.00179%
O=C1c2ccccc2CCN1CCCCN1CCN(c2cccc(Cl)c2Cl)CC1 | HTR1D | radioligand binding | – | concentration not given, together with: [3H]5-CT | – | 96.9%
Cc1nn(-c2nc3c(F)cc(F)cc3s2)c(O)c1C(c1cccc(C(F)(F)F)c1)c1c(C)nn(-c2nc3c(F)cc(F)cc3s2)c1O | Cyclic GMP-AMP synthase (CGAS, Homo sapiens, UniProt Q8N884) | enzyme activity, inhibitor, pyrophosphatase-coupled | – | 100 µM, 1.5 h, together with: HT-DNA | – | 79.7%
CC1=NNC(=O)C1=NNc1ccc(S(N)(=O)=O)cc1 | bovine α-glucosidase | enzyme activity, inhibitor, glucose oxidase | – | 10 µg/mL, together with: maltose | – | 24.548 ± 0.00117%
